# Measured values gathered from unrelated publications.
# Protocols differ between the studies behind these lines.
# Target: Fibroblast growth factor receptor 1 (FGFR1, Homo sapiens, UniProt P11362)
# Sequence of UniProt P11362 (whole entry, looked up): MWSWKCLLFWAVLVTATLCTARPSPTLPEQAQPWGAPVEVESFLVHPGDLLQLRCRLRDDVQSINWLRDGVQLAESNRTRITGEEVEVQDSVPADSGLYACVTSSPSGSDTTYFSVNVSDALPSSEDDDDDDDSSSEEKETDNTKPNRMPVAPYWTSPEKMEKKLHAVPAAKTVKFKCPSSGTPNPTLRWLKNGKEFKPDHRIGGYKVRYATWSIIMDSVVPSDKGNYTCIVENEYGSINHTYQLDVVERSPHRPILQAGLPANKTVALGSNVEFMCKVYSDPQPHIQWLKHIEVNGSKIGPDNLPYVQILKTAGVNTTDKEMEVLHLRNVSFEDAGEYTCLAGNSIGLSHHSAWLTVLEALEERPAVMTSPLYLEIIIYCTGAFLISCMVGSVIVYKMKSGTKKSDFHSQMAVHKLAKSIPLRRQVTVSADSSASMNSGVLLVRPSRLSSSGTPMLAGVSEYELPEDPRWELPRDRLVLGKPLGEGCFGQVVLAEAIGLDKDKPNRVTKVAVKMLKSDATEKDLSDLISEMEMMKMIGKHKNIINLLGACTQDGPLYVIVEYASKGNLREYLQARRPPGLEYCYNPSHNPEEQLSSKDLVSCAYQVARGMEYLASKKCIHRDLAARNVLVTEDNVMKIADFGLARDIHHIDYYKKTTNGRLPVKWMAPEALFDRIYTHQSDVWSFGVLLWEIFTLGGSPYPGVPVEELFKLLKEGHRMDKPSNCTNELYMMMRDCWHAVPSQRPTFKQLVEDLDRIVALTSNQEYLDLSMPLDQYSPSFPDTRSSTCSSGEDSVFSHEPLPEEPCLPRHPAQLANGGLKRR
Structure (SMILES),effect on,mode,method,setting,with,IC50 [nM]
Cc1nc2ccc(Cc3c[nH]c4ncc(C(F)(F)F)cc34)cc2o1,enzyme activity,inhibitor,,,,266
CN1CCN(C(=O)c2ccc(-c3ccc4c(c3)/C(=C/c3ccc(N5CCOCC5)cc3)C(=O)N4)cc2)CC1,enzyme activity,inhibitor,FRET,,,1890
COc1cc2nccc(Oc3ccc(NC(=S)Nc4cc[nH]n4)c(Cl)c3)c2cc1C(N)=O,,,,,,1830
Cc1c(-c2c3c(N)n[nH]c(=O)c3nn2-c2ccccc2)oc2cc(F)ccc12,enzyme activity,inhibitor,ELISA,,,60.3
COc1cc2nccc(Oc3ccc4c(c3)CCCN4C(=S)NC3CC3)c2cc1C(N)=O,,,,,,3700
Cc1ccc2oc(-c3c4c(N)n[nH]c(=O)c4nn3-c3c(F)cccc3F)c(C)c2c1,enzyme activity,inhibitor,ELISA,,,31.3
COc1cc2nccc(Oc3ccc(NC(=S)NC4CCOCC4)c(Cl)c3)c2cc1C(N)=O,,,,,,5070
Cc1ccc2oc(-c3c4c(N)n[nH]c(=O)c4nn3-c3cccc(F)c3)c(C)c2c1,enzyme activity,inhibitor,ELISA,,,53.1
COc1ccc(C(=O)/C=C/c2ccccc2-c2c[nH]c3ccc(C#N)cc23)c(O)c1,enzyme activity,inhibitor,ADP detection,,,1100
O=C1Nc2ccc(-c3ccc(-c4ccc(O)cc4)cc3)cc2/C1=C/c1ccc(N2CCNCC2)cc1,enzyme activity,inhibitor,FRET,,,72.2
C=CC(=O)Nc1ccc(-c2c(-c3ccc(Oc4cccc(C)n4)cc3)c3c(N)ncnc3n2C)cc1,,,Caliper mobility shift,30 min preincubation,100 µM ATP,9.8
COc1cc2nccc(Oc3ccc(NC(=S)Nc4cccc(C(F)(F)F)c4)c(Cl)c3)c2cc1C(N)=O,,,,,,3540
O=C1Nc2ccc(-c3ccc(C(=O)N4CCCCC4)cc3)cc2/C1=C/c1ccc(N2CCNCC2)cc1,enzyme activity,inhibitor,FRET,,,18.3
Cc1ccnc(Oc2ccc(-c3c(-c4ccc(NC(=O)C(C)C)cc4)n(C)c4ncnc(N)c34)cc2F)n1,,,Caliper mobility shift,30 min preincubation,100 µM ATP,4600
COc1cc2nccc(Oc3ccc(NC(=S)NC4CC4)c(Cl)c3)c2cc1C#N,,,,,,1900
O=C1Nc2ccc(-c3ccc4cc(O)ccc4c3)cc2/C1=C/c1ccc(N2CCNCC2)cc1,enzyme activity,inhibitor,FRET,,,1110
CCOCCCOc1cc2nccc(Oc3ccc(NC(=S)NC4CC4)c(Cl)c3)c2cc1C(N)=O,,,,,,216
C=CC(=O)Nc1ccc(-c2c(-c3ccc(Oc4ccccc4)cc3)c3c(N)ncnc3n2C)cc1,,,Caliper mobility shift,30 min preincubation,100 µM ATP,84
COc1cc2nccc(Oc3ccc(NC(=S)NCc4ccncc4)c(Cl)c3)c2cc1C(N)=O,,,,,,1730
Cc1ccc2oc(-c3c4c(N)n[nH]c(=O)c4nn3-c3c(Cl)cccc3Cl)c(C)c2c1,enzyme activity,inhibitor,ELISA,,,118
C=CC(=O)Nc1ccc(-c2c(-c3ccc(OC)cc3)c3c(N)ncnc3n2C)cc1,,,Caliper mobility shift,30 min preincubation,100 µM ATP,63
COc1cc(Cc2c[nH]c3ncc(C(F)(F)F)cc23)cc(OC)c1,enzyme activity,inhibitor,,,,7
Cc1c(-c2c3c(N)n[nH]c(=O)c3nn2-c2ccc(NC(=O)/C=C/CN(C)C)cc2)oc2cc(F)ccc12,enzyme activity,inhibitor,ELISA,,,63.4

# A few entries again:
Structure (SMILES),effect on,mode,method,setting,with,IC50 [nM]
C=CC(=O)Nc1ccc(-c2c(-c3ccc(Oc4cccc(C)n4)cc3)c3c(N)ncnc3n2C)cc1,,,Caliper mobility shift,30 min preincubation,100 µM ATP,9.8
Cc1c(-c2c3c(N)n[nH]c(=O)c3nn2-c2ccccc2)oc2cc(F)ccc12,enzyme activity,inhibitor,ELISA,,,60.3
O=C1Nc2ccc(-c3ccc(-c4ccc(O)cc4)cc3)cc2/C1=C/c1ccc(N2CCNCC2)cc1,enzyme activity,inhibitor,FRET,,,72.2
